Assay results gathered from unrelated publications.
Numbered parts are unrelated; each lists some results of a single study.
UniProt P35348, sequence (whole entry, looked up): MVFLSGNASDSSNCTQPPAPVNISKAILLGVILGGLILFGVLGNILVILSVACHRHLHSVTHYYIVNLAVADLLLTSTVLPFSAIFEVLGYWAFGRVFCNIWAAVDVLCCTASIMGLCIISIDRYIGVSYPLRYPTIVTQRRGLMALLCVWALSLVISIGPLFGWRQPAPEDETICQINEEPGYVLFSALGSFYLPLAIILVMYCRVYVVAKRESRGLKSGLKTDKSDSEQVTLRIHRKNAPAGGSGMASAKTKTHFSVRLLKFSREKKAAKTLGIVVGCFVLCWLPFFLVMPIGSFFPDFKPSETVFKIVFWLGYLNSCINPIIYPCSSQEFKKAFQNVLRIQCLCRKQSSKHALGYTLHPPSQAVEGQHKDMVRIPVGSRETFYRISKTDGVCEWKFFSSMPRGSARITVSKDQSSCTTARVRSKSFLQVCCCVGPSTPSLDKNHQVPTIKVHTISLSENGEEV
UniProt Q5BJF2, sequence (whole entry, looked up): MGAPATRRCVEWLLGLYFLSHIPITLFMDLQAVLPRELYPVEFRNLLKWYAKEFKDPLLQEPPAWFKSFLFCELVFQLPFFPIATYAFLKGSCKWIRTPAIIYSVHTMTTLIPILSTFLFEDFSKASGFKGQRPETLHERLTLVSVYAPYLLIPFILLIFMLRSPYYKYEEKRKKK
UniProt P28222, sequence (whole entry, looked up): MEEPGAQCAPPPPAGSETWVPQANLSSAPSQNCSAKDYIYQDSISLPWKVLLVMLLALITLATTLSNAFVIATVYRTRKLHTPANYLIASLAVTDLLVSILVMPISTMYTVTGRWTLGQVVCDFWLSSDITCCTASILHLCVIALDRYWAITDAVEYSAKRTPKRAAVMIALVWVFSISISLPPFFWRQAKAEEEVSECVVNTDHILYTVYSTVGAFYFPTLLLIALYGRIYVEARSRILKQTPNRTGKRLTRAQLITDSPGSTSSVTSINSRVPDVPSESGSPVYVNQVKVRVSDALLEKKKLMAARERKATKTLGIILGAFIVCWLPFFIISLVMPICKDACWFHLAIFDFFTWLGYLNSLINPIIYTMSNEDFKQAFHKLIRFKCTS
UniProt P35462, sequence (whole entry, looked up): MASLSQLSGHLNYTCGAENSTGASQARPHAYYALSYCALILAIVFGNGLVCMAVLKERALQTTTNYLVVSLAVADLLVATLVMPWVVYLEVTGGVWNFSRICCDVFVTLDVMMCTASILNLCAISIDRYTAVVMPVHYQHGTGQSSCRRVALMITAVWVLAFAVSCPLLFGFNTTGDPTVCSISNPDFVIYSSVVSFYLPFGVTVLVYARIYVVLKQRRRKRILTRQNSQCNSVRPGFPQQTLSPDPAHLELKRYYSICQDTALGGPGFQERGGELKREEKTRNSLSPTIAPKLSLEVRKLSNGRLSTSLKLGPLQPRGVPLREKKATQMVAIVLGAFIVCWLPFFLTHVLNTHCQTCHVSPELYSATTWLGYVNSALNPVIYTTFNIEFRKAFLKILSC
UniProt P28221, sequence (whole entry, looked up): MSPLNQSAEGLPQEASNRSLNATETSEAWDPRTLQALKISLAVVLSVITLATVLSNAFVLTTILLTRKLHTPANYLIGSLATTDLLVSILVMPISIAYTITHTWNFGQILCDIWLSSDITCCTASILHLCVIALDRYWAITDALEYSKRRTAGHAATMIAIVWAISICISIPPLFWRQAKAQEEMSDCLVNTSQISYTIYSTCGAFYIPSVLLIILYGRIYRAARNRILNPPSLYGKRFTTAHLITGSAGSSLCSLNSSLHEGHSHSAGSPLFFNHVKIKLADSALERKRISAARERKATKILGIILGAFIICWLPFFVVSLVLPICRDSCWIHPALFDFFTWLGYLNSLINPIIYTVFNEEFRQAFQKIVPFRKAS
UniProt P41595, sequence (whole entry, looked up): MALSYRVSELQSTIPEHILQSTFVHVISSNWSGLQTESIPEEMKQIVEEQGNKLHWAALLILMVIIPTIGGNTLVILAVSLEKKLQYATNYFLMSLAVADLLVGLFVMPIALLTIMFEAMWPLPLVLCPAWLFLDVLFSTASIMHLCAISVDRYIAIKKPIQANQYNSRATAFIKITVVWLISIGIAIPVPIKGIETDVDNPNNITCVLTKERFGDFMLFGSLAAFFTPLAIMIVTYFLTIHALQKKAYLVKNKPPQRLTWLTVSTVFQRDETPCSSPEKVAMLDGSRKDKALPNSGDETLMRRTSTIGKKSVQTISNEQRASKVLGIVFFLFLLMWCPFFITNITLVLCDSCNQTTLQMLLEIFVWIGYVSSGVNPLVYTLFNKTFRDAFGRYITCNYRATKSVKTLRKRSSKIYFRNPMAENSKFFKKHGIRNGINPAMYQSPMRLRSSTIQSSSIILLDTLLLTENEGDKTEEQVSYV

Sample 1
Host: human
Matrix: microsomes or S9
Concentration: 2 µM
Time: 0.5 h
SMILES	remaining compound
Cc1nc(-c2ccc(NC(=O)c3cscn3)cc2Cl)n[nH]1	86%
NCc1nc(COc2ccc3ccccc3c2)no1	21.5%
CC(C)COc1ccc(Cc2cnc(N)nc2N)cc1	18.4%
CCOc1cccc(CNC(=O)c2c(OC)cc(=O)n3c2CCCC3)c1	77.8%

Sample 2
Target: Ephrin type-B receptor 2 (EPHB2, Homo sapiens, UniProt P29323)
UniProt P29323, sequence (whole entry, looked up): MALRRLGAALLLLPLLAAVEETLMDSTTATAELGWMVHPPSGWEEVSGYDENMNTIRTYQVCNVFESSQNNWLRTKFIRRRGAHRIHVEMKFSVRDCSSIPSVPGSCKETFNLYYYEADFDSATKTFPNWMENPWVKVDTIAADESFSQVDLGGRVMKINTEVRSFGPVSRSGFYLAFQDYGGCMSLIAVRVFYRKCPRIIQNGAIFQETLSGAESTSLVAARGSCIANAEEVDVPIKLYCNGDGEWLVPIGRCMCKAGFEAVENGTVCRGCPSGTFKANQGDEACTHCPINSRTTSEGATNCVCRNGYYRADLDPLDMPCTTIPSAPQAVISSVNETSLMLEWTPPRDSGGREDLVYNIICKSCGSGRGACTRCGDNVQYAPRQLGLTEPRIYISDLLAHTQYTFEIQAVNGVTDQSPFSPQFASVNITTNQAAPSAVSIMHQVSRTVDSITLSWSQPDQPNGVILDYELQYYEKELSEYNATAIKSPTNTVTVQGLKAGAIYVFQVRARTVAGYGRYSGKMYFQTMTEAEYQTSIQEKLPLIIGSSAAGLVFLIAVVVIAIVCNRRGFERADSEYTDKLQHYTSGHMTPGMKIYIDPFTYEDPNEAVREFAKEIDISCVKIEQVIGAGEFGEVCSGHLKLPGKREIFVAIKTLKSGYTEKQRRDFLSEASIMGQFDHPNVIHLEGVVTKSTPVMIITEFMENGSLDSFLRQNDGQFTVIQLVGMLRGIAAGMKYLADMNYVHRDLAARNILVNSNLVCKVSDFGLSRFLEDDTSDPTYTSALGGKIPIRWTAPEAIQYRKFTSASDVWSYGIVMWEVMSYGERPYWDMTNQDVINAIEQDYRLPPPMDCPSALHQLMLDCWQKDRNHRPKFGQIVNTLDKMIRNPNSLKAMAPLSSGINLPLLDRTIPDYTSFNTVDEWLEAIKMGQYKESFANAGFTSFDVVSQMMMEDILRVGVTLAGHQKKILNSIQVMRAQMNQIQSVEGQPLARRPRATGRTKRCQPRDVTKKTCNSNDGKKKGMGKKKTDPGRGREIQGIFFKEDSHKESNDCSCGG
Read-out: enzyme activity
Action: inhibitor
Concentration: 0.5 µM
Baseline: control
SMILES	remaining activity [%]
O=C(CCCc1ccc(-c2ccccc2F)cc1)Nc1ccc(O)cc1	98.5
CC(C)[C@H](CO)Nc1nc(Nc2cc(N)cc(Cl)c2)c2ncn(C(C)C)c2n1	73.6
Nc1ccc2ncnc(NCCc3ccc(Oc4ccccc4)cc3)c2c1	97.7
Nc1[nH]nc2nc3ccccc3nc12	103
NCCNc1ncc(C(N)=O)c(Nc2cccc(C(F)(F)F)c2)n1	98.5
COc1ccc(OC)c2c(=S)c3ccccc3[nH]c12	94.9
Cc1cccc(-c2[nH]c(C(C)(C)C)nc2-c2ccc3c(c2)OCO3)n1	93
Cc1nc(-c2ccccc2)c(-c2ccncc2)o1	99.8
COc1ccc(CNC(=O)Nc2ncc([N+](=O)[O-])s2)cc1	88.4
Cc1ccc(Nc2nccc(N(C)c3ccc4c(C)n(C)nc4c3)n2)cc1S(N)(=O)=O	91.9
Oc1ccc(-c2nc(-c3ccncc3)c(-c3ccc(F)cc3)[nH]2)cc1	105
CO[C@H]1C[C@@H]2CC[C@@H](C)[C@@](O)(O2)C(=O)C(=O)N2CCCC[C@H]2C(=O)O[C@H]([C@H](C)C[C@@H]2CC[C@@H](O)[C@H](OC)C2)CC(=O)[C@H](C)/C=C(\C)[C@@H](O)[C@@H](OC)C(=O)[C@H](C)C[C@H](C)/C=C/C=C/C=C/1C	114
CCOC(=O)c1c(C)[nH]c(/C=C2\C(=O)Nc3ccccc32)c1C	95.4
O=C1NC(=O)C(c2cn(CCCn3ccnc3)c3ccccc23)=C1Nc1ccccc1	98.4

Sample 3
Organism: Sarcocystis neurona
Read-out: parasite growth
Concentration: 10 µM
Time: 96 h
Setting: second screen
Baseline: untreated
Compound	log2 fold change
CC(C)(C(=O)c1cccnc1)c1cccnc1	0.52
COc1ccc([C@@H]2Sc3ccccc3N(CCN(C)C)C(=O)[C@@H]2OC(C)=O)cc1	-0.13
O=C(O)C[C@H](O)C[C@H](O)/C=C/c1c(C2CC2)nc2ccccc2c1-c1ccc(F)cc1	0.12
COc1cc(C(=O)NS(=O)(=O)c2ccccc2C)ccc1Cc1cn(C)c2ccc(NC(=O)OC3CCCC3)cc12	0.46
N#Cc1ccc(C(c2ccc(C#N)cc2)n2cncn2)cc1	0.49
CC(C(O)c1ccc(O)cc1)N1CCC(Cc2ccccc2)CC1 (stereo not drawn)	0.26

Sample 4
SMILES: CNC(=O)c1cc(C(=O)N[C@H]2[C@@H]3COC[C@@H]32)cc2c1O[C@H](CF)[C@H]2c1ccccc1
Concentration: 10 µM
target	read-out	method	inhibition [%]
DRD3 (Homo sapiens, UniProt P35462)	binding	radioligand binding	81.8
HTR1B (Homo sapiens, UniProt P28222)	binding	radioligand binding	-0.1
TMEM97 (Homo sapiens, UniProt Q5BJF2)	binding	radioligand binding	14.3
ADRA1A (Homo sapiens, UniProt P35348)	binding	radioligand binding	-4.55
HTR1D (Homo sapiens, UniProt P28221)	binding	radioligand binding	-5.14
HTR2B (Homo sapiens, UniProt P41595)	cell-free assay	–	28.2

For quick reference, copied from above (sample 4):
target	read-out	method	inhibition [%]
HTR2B (Homo sapiens, UniProt P41595)	cell-free assay	–	28.2
ADRA1A (Homo sapiens, UniProt P35348)	binding	radioligand binding	-4.55
HTR1B (Homo sapiens, UniProt P28222)	binding	radioligand binding	-0.1
TMEM97 (Homo sapiens, UniProt Q5BJF2)	binding	radioligand binding	14.3
